{"data": "Results collected from several papers", "note": "Each line is one published result; not all experiments were run side by side. Several values in a cell are separate wells, animals, samples, runs or records."}
{"SMILES": "CC(C)N1CCC(NC2CCN(c3cccc(-c4cc5cc(F)ccc5[nH]4)c3)CC2)CC1", "cell line": "HOP-92", "measurement": "GI50", "value": "1200 nM"}
{"SMILES": "Cc1cc(C(C)(C)c2ccc(O)c(C)c2)ccc1O", "cell line": "HepG2 spheroids", "test": "planimetry", "conditions": "2.5 µM, 0 to 24 h", "how to read": "reference: mean area of 72 h spheroids", "measurement": "spheroid area increase", "value": "122%"}
{"SMILES": "COc1cc(C(=O)c2c[nH]c3cc(-c4cccc(O)c4)ccc23)cc(OC)c1OC", "cell line": "MDA-MB-231", "conditions": "100 nM, 20 h", "measurement": "rounded cells", "value": "> 90%"}
{"SMILES": "CC[C@H](C)[C@H](NC(=O)CNC(=O)[C@@H](N)CCCCN)C(=O)N[C@@H](CC(C)C)C(=O)N[C@@H](CCCCN)C(=O)N[C@@H](CCCNC(=N)N)C(=O)N[C@@H](CCC(=O)O)C(=O)N[C@@H](CCCCN)C(=O)N[C@@H](CCCNC(=N)N)C(=O)N[C@@H](CC(C)C)C(=O)N[C@@H](CCCNC(=N)N)C(=O)N[C@@H](CCCNC(=N)N)C(=O)N[C@@H](CCCCN)C(=O)N[C@@H](CC(N)=O)C(=O)N[C@H](C(=O)N[C@@H](Cc1c[nH]cn1)C(=O)N[C@@H](Cc1c[nH]c2ccccc12)C(=O)N1CCC[C@H]1C(=O)N[C@@H](CCC(=O)O)C(=O)N[C@@H](CCC(=O)O)C(=O)NCC(=O)N[C@@H](CCCCN)C(=O)N[C@@H](CC(C)C)C(=O)N[C@@H](CCCNC(=N)N)C(=O)N[C@@H](CCC(=O)O)C(=O)N[C@@H](Cc1ccccc1)C(=O)N[C@@H](Cc1ccccc1)C(=O)N[C@@H](Cc1ccccc1)C(=O)N[C@@H](Cc1ccccc1)C(=O)N[C@@H](CCC(=O)O)C(=O)N[C@@H](CC(C)C)C(=O)N[C@@H](CC(=O)O)C(=O)N[C@@H](CCC(=O)O)C(=O)N[C@@H](C)C(=O)N[C@@H](CCC(=O)O)C(=O)N[C@@H](CCCNC(=N)N)C(=O)N[C@H](C(=O)N[C@@H](CC(N)=O)C(=O)N[C@H](C(=O)O)C(C)C)C(C)C)C(C)C", "cell line": "HeLa (mitotic)", "test": "protein phosphorylation, TMT phosphoproteomics, refers to: CDC5L Ser42", "system": "cell lysate", "conditions": "concentration not given, 15 min", "how to read": "reference: treated over control", "measurement": "log2 fold change", "value": 3.32}
{"SMILES": "Cc1sc2c(c1C)C(c1ccc(Cl)cc1)=N[C@@H](CC(=O)Nc1ccc(O)cc1)c1nnc(C)n1-2", "cell line": "murine AML cells", "test": "BRD4 chromatin occupancy, ChIP-seq, refers to: Irf2bp2 locus", "conditions": "concentration not given", "how to read": "reference: DMSO", "measurement": "log2 fold change", "value": -2.45}
{"SMILES": "C/C=C(/C)C(=O)O[C@H]1C(C)=C2[C@H]([C@@H]1OC(=O)CCCCCCC)[C@@](C)(OC(C)=O)C[C@H](OC(=O)CCC)[C@@]1(O)[C@H]2OC(=O)[C@@]1(C)O", "cell line": "HEK293T", "test": "RNA-seq, refers to: CBX4 mRNA", "conditions": "10 µM, 6 h", "how to read": "reference: vehicle", "measurement": "log2 fold change", "value": 0.441}
{"SMILES": "N.N.[Cl][Pt][Cl]", "cell line": "SGC-7901", "test": "CCK-8", "conditions": "glutamine deficiency", "measurement": "IC50", "value": "12000 nM"}
{"SMILES": "Cn1cncc1C1=CN(c2ncnc3[nH]cnc23)CCS1", "cell line": "SN12C", "conditions": "renal cancer", "measurement": "CC50", "value": "> 200000 nM"}
{"SMILES": "CCOC(=O)C1=C(N)N(c2ccc(C(=O)OCC)cc2)C(O)=C(C#N)C12C(=O)Nc1ccccc12 (stereo not drawn)", "cell line": "Caco-2", "test": "qRT-PCR, refers to: Bax", "conditions": "IC50", "how to read": "reference: untreated", "measurement": "mRNA fold change", "value": 4.19}
{"SMILES": "Cn1cc(-c2ccc(-c3cncc(Cl)c3N3CCC4(CCNC4=O)CC3)cc2)cn1", "cell line": "COLO 205", "test": "gene expression, microarray, refers to: BIRC5 mRNA", "conditions": "concentration not given, 6 h", "how to read": "reference: untreated cells", "measurement": "log2 fold change", "value": -3.3}
{"SMILES": "Cn1nccc1Nc1nccc(-c2cc3c(s2)C(C)(C)N(CCN2CCOCC2)C3=O)n1", "cell line": "HCT116", "test": "IncuCyte", "conditions": "concentration not given, 20 (unit not given)", "measurement": "PI-positive cells", "value": "5.83 count and 7.33 count and 5.17 count"}
{"SMILES": "CN1CCN(C2(CNC3CCN(c4cccc(-c5cc6cc(F)ccc6[nH]5)c4)CC3)CCC2)CC1", "cell line": "UACC-257", "measurement": "GI50", "value": "2190 nM"}
{"SMILES": "C[C@@H](O)[C@H]1C(=O)N2C(C(=O)O)=C(S[C@@H]3CN[C@H](C(=O)N(C)C)C3)[C@H](C)[C@H]12", "cell line": "Escherichia coli DH5α expressing KPC-2", "test": "bacterial growth", "measurement": "MIC", "value": "4 µg/mL"}
{"SMILES": "COc1c(CCC[P+](c2ccccc2)(c2ccccc2)c2ccccc2)cc2c(c1OC)OCO2.[I-]", "cell line": "HOP-62", "test": "SRB", "measurement": "LC50", "value": "-4.15 log M"}
{"SMILES": "CN(C)NC(=O)CCC(=O)O", "cell line": "OCI-Ly1", "conditions": "1 µM, 120 h", "measurement": "viability", "value": "110%"}
{"SMILES": "COc1ccc2c(c1)[nH]c1c(C)nccc12", "cell line": "DU-145", "test": "bisulfite pyrosequencing, refers to: RASSF1A promoter CpG site 27", "conditions": "concentration not given", "how to read": "reference: vehicle", "measurement": "methylation reduction", "value": "0.4%"}
{"SMILES": "COc1ccc([C@H]2c3[nH]c4ccc(Cl)cc4c3CCN2C(=O)Oc2ccc(Cl)cc2)cc1", "cell line": "human dermal fibroblasts with PBMC", "test": "cytokine secretion, refers to: sIL-2", "conditions": "0.1 µM, 48 h", "measurement": "inhibition", "value": "68%"}
{"SMILES": "COc1cc(CCC[P+](c2ccccc2)(c2ccccc2)c2ccccc2)c(OC)c2c1OCO2.[I-]", "cell line": "HOP-92", "test": "SRB", "measurement": "GI50", "value": "-5.94 log M"}
